# Experimental data from different studies.
# Each numbered part is a random draw from the data of one study; scales do not carry over between parts.
# Sequence of UniProt P00519 (whole entry, unmodified, looked up): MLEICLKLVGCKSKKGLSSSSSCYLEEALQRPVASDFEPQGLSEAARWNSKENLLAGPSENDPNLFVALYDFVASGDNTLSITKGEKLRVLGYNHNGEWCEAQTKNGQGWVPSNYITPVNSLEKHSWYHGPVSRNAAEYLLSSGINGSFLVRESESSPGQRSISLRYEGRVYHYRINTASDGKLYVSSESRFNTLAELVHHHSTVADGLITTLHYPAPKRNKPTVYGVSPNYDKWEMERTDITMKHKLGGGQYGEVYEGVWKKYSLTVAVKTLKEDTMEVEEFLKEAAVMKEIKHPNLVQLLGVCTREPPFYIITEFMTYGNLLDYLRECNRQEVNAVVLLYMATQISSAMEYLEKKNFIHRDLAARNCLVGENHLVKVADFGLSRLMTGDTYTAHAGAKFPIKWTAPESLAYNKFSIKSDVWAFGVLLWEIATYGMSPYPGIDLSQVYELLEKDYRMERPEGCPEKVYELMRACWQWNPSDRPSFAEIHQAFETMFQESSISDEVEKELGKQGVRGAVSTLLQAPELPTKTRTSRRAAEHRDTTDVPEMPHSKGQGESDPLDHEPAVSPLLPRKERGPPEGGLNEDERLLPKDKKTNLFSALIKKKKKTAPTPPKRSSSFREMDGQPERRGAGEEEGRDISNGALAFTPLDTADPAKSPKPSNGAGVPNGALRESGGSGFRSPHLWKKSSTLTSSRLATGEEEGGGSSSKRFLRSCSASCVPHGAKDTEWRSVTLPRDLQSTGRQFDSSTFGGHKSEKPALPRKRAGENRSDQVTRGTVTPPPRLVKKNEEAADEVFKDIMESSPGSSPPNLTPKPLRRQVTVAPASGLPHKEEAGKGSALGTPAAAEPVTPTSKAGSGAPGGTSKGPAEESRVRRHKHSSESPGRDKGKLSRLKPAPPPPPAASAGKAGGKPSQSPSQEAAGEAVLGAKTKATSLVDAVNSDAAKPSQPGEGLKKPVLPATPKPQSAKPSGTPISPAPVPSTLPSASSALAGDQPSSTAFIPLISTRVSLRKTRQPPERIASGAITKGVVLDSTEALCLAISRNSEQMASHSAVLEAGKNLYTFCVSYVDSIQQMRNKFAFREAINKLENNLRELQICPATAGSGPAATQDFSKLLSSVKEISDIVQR
# Sequence of UniProt Q16288 (whole entry, looked up): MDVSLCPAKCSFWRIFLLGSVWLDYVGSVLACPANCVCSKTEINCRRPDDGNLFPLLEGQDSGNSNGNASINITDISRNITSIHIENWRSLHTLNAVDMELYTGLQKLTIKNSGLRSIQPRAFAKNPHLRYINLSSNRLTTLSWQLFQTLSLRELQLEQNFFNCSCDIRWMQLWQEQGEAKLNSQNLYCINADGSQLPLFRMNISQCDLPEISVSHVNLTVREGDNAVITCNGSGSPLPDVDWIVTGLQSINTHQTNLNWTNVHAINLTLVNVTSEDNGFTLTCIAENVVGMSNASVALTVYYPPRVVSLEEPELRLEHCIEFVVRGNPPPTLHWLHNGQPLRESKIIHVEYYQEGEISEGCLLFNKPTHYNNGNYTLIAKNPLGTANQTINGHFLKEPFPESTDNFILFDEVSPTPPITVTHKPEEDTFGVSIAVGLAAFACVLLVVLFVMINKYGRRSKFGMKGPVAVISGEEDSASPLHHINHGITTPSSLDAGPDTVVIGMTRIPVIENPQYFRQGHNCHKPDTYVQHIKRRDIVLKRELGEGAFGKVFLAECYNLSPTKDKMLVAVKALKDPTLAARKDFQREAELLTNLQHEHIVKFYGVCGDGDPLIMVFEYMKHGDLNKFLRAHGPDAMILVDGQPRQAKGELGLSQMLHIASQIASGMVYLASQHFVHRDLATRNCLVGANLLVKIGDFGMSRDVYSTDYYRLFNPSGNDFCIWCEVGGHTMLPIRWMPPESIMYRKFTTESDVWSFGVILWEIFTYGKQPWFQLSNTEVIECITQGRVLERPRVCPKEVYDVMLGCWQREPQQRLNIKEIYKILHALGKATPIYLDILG
# Sequence of UniProt P36894 (whole entry, looked up): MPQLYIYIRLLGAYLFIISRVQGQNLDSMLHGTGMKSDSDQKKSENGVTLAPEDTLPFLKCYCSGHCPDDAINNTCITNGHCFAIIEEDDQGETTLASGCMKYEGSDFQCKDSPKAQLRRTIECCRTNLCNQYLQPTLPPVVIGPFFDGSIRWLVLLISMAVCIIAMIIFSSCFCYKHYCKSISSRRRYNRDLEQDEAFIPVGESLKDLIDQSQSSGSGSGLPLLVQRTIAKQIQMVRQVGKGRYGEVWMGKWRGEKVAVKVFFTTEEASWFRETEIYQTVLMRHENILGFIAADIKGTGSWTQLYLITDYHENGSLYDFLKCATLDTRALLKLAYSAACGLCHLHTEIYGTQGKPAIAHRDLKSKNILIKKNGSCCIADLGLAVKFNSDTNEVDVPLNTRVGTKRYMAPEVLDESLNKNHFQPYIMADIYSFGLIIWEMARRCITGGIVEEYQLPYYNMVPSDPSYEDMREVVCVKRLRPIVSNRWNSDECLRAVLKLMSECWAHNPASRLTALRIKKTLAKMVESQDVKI
# Sequence of UniProt Q15569 (whole entry, looked up): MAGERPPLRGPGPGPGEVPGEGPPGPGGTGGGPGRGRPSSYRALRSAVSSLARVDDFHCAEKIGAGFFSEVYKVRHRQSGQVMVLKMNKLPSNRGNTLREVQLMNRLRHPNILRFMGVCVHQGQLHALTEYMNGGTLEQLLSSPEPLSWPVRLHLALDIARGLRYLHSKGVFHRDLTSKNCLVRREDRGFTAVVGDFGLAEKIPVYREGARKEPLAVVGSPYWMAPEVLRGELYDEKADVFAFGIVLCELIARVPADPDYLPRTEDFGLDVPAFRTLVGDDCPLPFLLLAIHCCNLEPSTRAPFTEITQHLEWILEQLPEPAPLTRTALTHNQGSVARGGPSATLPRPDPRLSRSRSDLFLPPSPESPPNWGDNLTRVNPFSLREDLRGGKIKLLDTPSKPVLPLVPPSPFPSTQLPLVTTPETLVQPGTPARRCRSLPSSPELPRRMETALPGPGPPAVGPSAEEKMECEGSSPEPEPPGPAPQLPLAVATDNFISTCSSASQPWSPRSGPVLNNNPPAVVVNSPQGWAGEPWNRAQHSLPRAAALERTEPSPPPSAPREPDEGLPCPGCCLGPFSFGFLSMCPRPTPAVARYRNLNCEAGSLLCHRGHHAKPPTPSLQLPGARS
# Sequence of UniProt Q9BYP7 (whole entry, looked up): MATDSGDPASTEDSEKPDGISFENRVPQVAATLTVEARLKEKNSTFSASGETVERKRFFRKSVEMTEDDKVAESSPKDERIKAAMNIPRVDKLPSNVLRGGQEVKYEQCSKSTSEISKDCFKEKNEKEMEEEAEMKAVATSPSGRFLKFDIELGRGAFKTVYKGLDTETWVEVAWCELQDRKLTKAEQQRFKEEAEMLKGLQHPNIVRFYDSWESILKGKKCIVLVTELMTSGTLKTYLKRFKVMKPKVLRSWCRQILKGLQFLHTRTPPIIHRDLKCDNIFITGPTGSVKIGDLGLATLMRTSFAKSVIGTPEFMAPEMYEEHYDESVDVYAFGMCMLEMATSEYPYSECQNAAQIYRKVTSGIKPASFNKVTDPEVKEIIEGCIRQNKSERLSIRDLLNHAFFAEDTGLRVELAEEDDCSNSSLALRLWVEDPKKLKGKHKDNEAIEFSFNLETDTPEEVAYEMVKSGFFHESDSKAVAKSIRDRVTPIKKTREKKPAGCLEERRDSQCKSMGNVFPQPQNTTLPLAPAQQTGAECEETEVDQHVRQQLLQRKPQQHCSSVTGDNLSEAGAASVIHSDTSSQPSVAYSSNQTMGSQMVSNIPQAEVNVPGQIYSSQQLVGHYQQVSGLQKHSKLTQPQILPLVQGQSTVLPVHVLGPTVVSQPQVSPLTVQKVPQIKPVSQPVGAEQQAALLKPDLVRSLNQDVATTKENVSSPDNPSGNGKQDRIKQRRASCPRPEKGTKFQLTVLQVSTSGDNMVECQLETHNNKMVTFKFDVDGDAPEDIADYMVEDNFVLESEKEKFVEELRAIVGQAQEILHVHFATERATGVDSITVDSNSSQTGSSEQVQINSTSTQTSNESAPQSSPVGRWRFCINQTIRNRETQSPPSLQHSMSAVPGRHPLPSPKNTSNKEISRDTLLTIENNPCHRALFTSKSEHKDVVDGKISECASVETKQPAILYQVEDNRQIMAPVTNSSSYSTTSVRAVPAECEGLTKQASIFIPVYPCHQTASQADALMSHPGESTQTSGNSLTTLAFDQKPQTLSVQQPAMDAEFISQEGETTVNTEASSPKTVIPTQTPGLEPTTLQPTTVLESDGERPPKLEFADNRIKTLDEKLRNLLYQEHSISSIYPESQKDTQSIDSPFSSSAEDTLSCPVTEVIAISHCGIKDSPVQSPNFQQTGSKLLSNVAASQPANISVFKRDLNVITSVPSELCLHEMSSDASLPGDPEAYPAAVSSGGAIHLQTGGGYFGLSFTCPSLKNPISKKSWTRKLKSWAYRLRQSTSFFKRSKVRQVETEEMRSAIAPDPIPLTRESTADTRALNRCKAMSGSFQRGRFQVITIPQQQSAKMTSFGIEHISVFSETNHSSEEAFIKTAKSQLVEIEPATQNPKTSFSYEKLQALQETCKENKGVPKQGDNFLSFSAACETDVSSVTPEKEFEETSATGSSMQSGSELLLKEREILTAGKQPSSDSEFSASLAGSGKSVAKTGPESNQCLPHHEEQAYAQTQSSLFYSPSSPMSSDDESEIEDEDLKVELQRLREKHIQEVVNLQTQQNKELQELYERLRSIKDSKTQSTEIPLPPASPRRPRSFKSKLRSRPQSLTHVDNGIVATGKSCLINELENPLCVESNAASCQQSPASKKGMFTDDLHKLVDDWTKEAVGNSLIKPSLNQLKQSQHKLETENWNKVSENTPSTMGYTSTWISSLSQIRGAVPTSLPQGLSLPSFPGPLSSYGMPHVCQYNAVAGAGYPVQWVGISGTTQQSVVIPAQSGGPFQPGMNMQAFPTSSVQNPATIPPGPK

# Block 1
# SMILES: COc1cc2ncnc(Nc3cccc(Cl)c3)c2cc1OC
# Effect on: enzyme activity
# Mode: inhibitor
# Tested at: 0.5 µM
# Reference: control
target,remaining activity [%]
"PIM2 (Homo sapiens, UniProt Q9P1W9)",104
"EPHB2 (Homo sapiens, UniProt P29323)",98.1
"GSK3A (Homo sapiens, UniProt P49840)",104
"GRK2 (Homo sapiens, UniProt P25098)",96.6

# Block 2
# Cell line: mouse MPNST tumor cells
# Technique: high-content immunofluorescence imaging
# Refers to: nuclear SOX9
# Tested at: 10 µM
# Time: 12 h
# Setting: mean of 2 replicates
# Reference: DMSO control
# Direction: higher = more nuclear SOX9
SMILES,nuclear SOX9 intensity
CCCNC(C)(C)COC(=O)c1ccccc1,102 % of DMSO
NC(=O)NO,118 % of DMSO
CCN(CC)S(=O)(=O)c1ccc(Cl)c(C(=O)Nc2ccc3nc(C)sc3c2)c1,100 % of DMSO
CC(=O)Nc1nc2c(Oc3cc(-c4ccc(C(F)(F)F)cc4)ncn3)cccc2s1,92 % of DMSO
Nc1ccccc1S(N)(=O)=O,105 % of DMSO
COC1(C2=NCCN2)COc2ccccc2O1 (stereo not drawn),97 % of DMSO
O=c1cc(NCCCN[C@@H]2CCOc3c(Br)cc(Br)cc32)[nH]c2ccsc12,105 % of DMSO
CC[N+](CC)(CC)CCOc1cccc(OCC[N+](CC)(CC)CC)c1OCC[N+](CC)(CC)CC,99.4 % of DMSO
CCCC(=O)C1(c2ccccc2)CCN(C(=O)[C@@H](Cc2ccc(OC)cc2)NC(=O)[C@@H](N)Cc2cncn2C)CC1,122 % of DMSO
CC1CCc2cc(F)cc3c(=O)c(C(=O)O)cn1c23 (stereo not drawn),95.8 % of DMSO

# Block 3
# Compound: Cc1ccc(NC(=O)c2ccnc(C(F)(F)F)c2)cc1-c1cc(OCCO)nc(N2CCOCC2)c1
# Tested at: 1 µM
target,test,conditions,scale,remaining binding [%]
"NEK11 (Homo sapiens, UniProt Q8NG66)",competitive binding panel,,reference: vehicle,88
"DYRK2 (Homo sapiens, UniProt Q92630)",competitive binding panel,,reference: vehicle,99
"MAPK7 (Homo sapiens, UniProt Q13164)","competitive binding panel, refers to: ERK5",,reference: vehicle,100
"FLT1 (Homo sapiens, UniProt P17948)",competitive binding panel,,reference: vehicle,89
"ABL1 (Homo sapiens, UniProt P00519, Y253F)",competitive binding panel,,reference: vehicle,100
"EPHA5 (Homo sapiens, UniProt P54756)",competitive binding panel,,reference: vehicle,92
"SRPK1 (Homo sapiens, UniProt Q96SB4)",competitive binding panel,,reference: vehicle,99
"ABL1 (Homo sapiens, UniProt P00519, H396P)",competitive binding scan,,,83
"ABL1 (Homo sapiens, UniProt P00519)","competitive binding, scanMAX","nonphosphorylated, 1000 nM",,58

# Block 4
# SMILES: O=C(O)[C@@H]1[C@@H](Cn2nnc3ccccc3c2=O)CC[C@H]1C(=O)c1ccc(OCCC2CCOCC2)cc1
# Technique: competition with immobilised ligand
# Tested at: 1 µM
target,test,remaining binding [%]
"CAMK1G (Homo sapiens, UniProt Q96NX5)",cell-free assay,100
"DAPK1 (Homo sapiens, UniProt P53355)",cell-free assay,100
"PLK2 (Homo sapiens, UniProt Q9NYY3)",cell-free assay,92
"PRKD2 (Homo sapiens, UniProt Q9BZL6)",cell-free assay,73
"ROCK2 (Homo sapiens, UniProt O75116)",cell-free assay,100
"BMPR1A (Homo sapiens, UniProt P36894)",binding,100
"MYLK4 (Homo sapiens, UniProt Q86YV6)",cell-free assay,100
"CDKL1 (Homo sapiens, UniProt Q00532)",binding,100
"PRKG1 (Homo sapiens, UniProt Q13976)",cell-free assay,100
"NTRK3 (Homo sapiens, UniProt Q16288)",cell-free assay,86
"EGFR (Homo sapiens, UniProt P00533, del747-752/P753S)",cell-free assay,87
"TESK1 (Homo sapiens, UniProt Q15569)",cell-free assay,94
"PRKAA2 (Homo sapiens, UniProt P54646)",cell-free assay,100
"TNK2 (Homo sapiens, UniProt Q07912)",cell-free assay,100
"STK16 (Homo sapiens, UniProt O75716)",cell-free assay,89
"MAP2K6 (Homo sapiens, UniProt P52564)",cell-free assay,100
"Insulin receptor (INSR, Homo sapiens, UniProt P06213)",cell-free assay,85
"EPHA4 (Homo sapiens, UniProt P54764)",cell-free assay,92
"WNK3 (Homo sapiens, UniProt Q9BYP7)",cell-free assay,100
"CSNK1G2 (Homo sapiens, UniProt P78368)",cell-free assay,100
"BRAF (Homo sapiens, UniProt P15056, V600E)",cell-free assay,100
"PRKCE (Homo sapiens, UniProt Q02156)",cell-free assay,100
